Measurements of several laboratories.
Lines come from different studies, so protocols differ.
Organism: Influenza A virus

Compound | effect on | mode | cells | strain | time | IC50
CCN(CC)CC(=O)O[C@@H]1C[C@@H]2CC[C@@]1(C)C2(C)C | viral replication | inhibitor | MDCK | H1N1 PR8 |  | > 41 µM
CCN(CC)CC#CCOC(=O)[C@]1(C)CCC[C@]2(C)[C@H]3C[C@H]4C(C(C)C)=C[C@]3(CC[C@H]21)[C@@H]1C(=O)OC(=O)[C@@H]14 | viral replication |  | MDCK | A/Puerto Rico/8/34 (H1N1) |  | 37.4 µM
C=CC1=C(C)c2cc3nc(cc4[nH]c(cc5[nH]c(cc1n2)c(C)c5C=C)c(C)c4CCC(=O)OCCCCCCCCCCCCCC)C(CCC(=O)O)=C3C | viral replication |  | MDCK | H3N2 |  | 13.6 µM
CC(C)C1=CC2=CC[C@@H]3[C@](C)(CCC[C@@]3(C)C(=O)OCC#CCN3CCOCC3)[C@H]2CC1 | viral replication |  | MDCK | A/Puerto Rico/8/34 (H1N1) |  | 33 µM
CCN(CC)CCCC(=O)O[C@@H]1C[C@@H]2CC[C@@]1(C)C2(C)C | viral replication | inhibitor | MDCK | H1N1 PR8 |  | > 14 µM
CC1=CCC[C@H](C)[C@@]12CC[C@@H](C(C)(C)O)C2 | cytopathic effect |  | MDCK | H3N2 | 72 h | 51.2 µg/mL
CC(C)CCOP(=O)(O)Oc1c2c(c(OP(=O)(O)OCCC(C)C)c3c1C1CC3c3cc4c(cc31)C1CC4c3ccccc31)C1CC2c2cc3c(cc21)C1CC3c2ccccc21 | viral replication |  | Caco-2 |  |  | 2.8 µM
CC(C)C1=C[C@@]23CC[C@@H]4[C@](C)(CCC[C@@]4(C)C(=O)NCC#CCN4CCCNCC4)[C@H]2C[C@@H]1[C@H]1C(=O)OC(=O)[C@H]13 | viral replication |  | MDCK | A/Puerto Rico/8/34 (H1N1) |  | 69.8 µM
CC(C)=CCC[C@H](C)c1ccc(C)cc1 | cytopathic effect |  | MDCK | H1N1 PR/8 | 72 h | 18.4 µg/mL
O=P(O)(OCc1ccc(-c2ccccc2)cc1)Oc1c2c(c(OP(=O)(O)OCc3ccc(-c4ccccc4)cc3)c3c1C1CC3c3cc4c(cc31)C1CC4c3ccccc31)C1CC2c2cc3c(cc21)C1CC3c2ccccc21 | viral replication |  | Caco-2 |  |  | 0.6 µM
CC1=CCC2C34CCC(O)(OC3)C(C)(C)C4CCC2(C)C12Cc1c(cc(-c3cccnc3)oc1=O)O2 (stereo not drawn) | viral replication |  |  | H1N1 |  | 6.61 µM
CC(C)C1=CC2=CC[C@@H]3[C@](C)(CCC[C@@]3(C)C(=O)OCC#CCN3CCCC3)[C@H]2CC1 | viral replication |  | MDCK | A/Puerto Rico/8/34 (H1N1) |  | 13.7 µM
C=CC1=C(C)c2cc3nc(cc4[nH]c(cc5[nH]c(cc1n2)c(C)c5C=C)c(C)c4CCC(=O)OCc1ccc(-c2ccccc2)cc1)C(CCC(=O)O)=C3C | viral replication |  | MDCK | A/Puerto Rico/8/34 H1N1 |  | > 26.8 µM
CC1=CC[C@@H]2[C@]34CC[C@](O)(OC3=O)C(C)(C)[C@@H]4CC[C@@]2(C)[C@@]12Oc1cc(-c3cccnc3)oc(=O)c1[C@@H]2O | viral replication |  |  | H1N1 |  | 4.48 µM
CCc1ccc(COP(=O)(O)Oc2c3c(c(OP(=O)(O)OCc4ccc(CC)cc4)c4c2C2CC4c4cc5c(cc42)C2CC5c4ccccc42)C2CC3c3cc4c(cc32)C2CC4c3ccccc32)cc1 | viral replication |  | Caco-2 |  |  | 3.2 µM
COC(=O)[C@]1(C)CCC[C@]2(C)[C@H]3C[C@H]4C(C(C)C)=C[C@]3(CC[C@H]21)[C@H]1[C@@H]4[C@@H](OCC#CCN2CCOCC2)CC[C@@H]1O | viral replication |  | MDCK | A/Puerto Rico/8/34 (H1N1) |  | 14.7 µM
CC1=CC(O)C2C34CCC(O)(OC3)C(C)(C)C4CCC2(C)C12Oc1cc(-c3cccnc3)oc(=O)c1C2O (stereo not drawn) | viral replication |  |  | H1N1 |  | 19.9 µM

Compound | effect on | mode | cells | strain | time | IC50
O=P(O)(O)Oc1c2c(c(OP(=O)(O)O)c3c1C1CC3c3cc4c(cc31)C1CC4c3ccccc31)C1CC2c2cc3c(cc21)C1CC3c2ccccc21 | viral replication |  | Caco-2 |  |  | 30.5 µM
CO[C@@]12CC[C@]3(C(=O)O1)[C@H]1CC=C(C)[C@@]4(Cc5c(cc(-c6cccnc6)oc5=O)O4)[C@]1(C)CC[C@H]3C2(C)C | viral replication |  |  | H1N1 |  | 7.24 µM
C=CC1=C(C)c2cc3nc(cc4[nH]c(cc5[nH]c(cc1n2)c(C)c5C=C)c(C)c4CCC(=O)OCCCCCCCCCCCCCCCCCC)C(CCC(=O)O)=C3C | viral replication |  | MDCK | H3N2 |  | > 21.9 µM
O=P(O)(OCc1ccccc1)Oc1c2c(c(OP(=O)(O)OCc3ccccc3)c3c1C1CC3c3cc4c(cc31)C1CC4c3ccccc31)C1CC2c2cc3c(cc21)C1CC3c2ccccc21 | viral replication |  | Caco-2 |  |  | 8 µM
CC1=CCC2C3(CO)CCC(O)C(C)(C)C3CCC2(C)C12Cc1c(cc(-c3cccnc3)oc1=O)O2 (stereo not drawn) | viral replication |  |  | H1N1 |  | 18.4 µM
CCN(CC)CC#CCOC(=O)[C@]1(C)CCC[C@@]2(C)[C@H]1CC=C1C=C(C(C)C)CC[C@@H]12 | viral replication |  | MDCK | A/Puerto Rico/8/34 (H1N1) |  | 12.6 µM
CCCCCCOP(=O)(O)Oc1c2c(c(OP(=O)(O)OCCCCCC)c3c1C1CC3c3cc4c(cc31)C1CC4c3ccccc31)C1CC2c2cc3c(cc21)C1CC3c2ccccc21 | viral replication |  | Caco-2 |  |  | 113 µM
CC(C)C1=C[C@@]23CC[C@@H]4[C@](C)(CCC[C@@]4(C)C(=O)OCC#CCN4CCCC4)[C@H]2C[C@@H]1[C@H]1C(=O)OC(=O)[C@H]13 | viral replication |  | MDCK | A/Puerto Rico/8/34 (H1N1) |  | 3 µM
CN(C)CCCC(=O)O[C@@H]1C[C@@H]2CC[C@@]1(C)C2(C)C | viral replication | inhibitor | MDCK | H1N1 PR8 |  | 97 µM
C=CC1=C(C)c2cc3nc(cc4[nH]c(cc5[nH]c(cc1n2)c(C)c5C=C)c(C)c4CCC(=O)OCCCCCCCCCC)C(CCC(=O)O)=C3C | viral replication |  | MDCK | H3N2 |  | 8.95 µM
C[C@@H](CO)C(=O)OCCc1ccc(O)cc1 | viral replication | inhibitor |  | H1N1 WSN | 24 h | 12.7 µM
Cc1ccc(COP(=O)(O)Oc2c3c(c(OP(=O)(O)OCc4ccc(C)cc4)c4c2C2CC4c4cc5c(cc42)C2CC5c4ccccc42)C2CC3c3cc4c(cc32)C2CC4c3ccccc32)cc1 | viral replication |  | Caco-2 |  |  | 2.1 µM
CC(C)C1=CC2=C(C=O)C[C@@H]3[C@](C)(CCC[C@@]3(C)C(=O)OCC#CCN3CCOCC3)[C@H]2CC1 | viral replication |  | MDCK | A/Puerto Rico/8/34 (H1N1) |  | 5.48 µM
C=CC1=C(C)c2cc3nc(cc4[nH]c(cc5[nH]c(cc1n2)c(C)c5C=C)c(C)c4CCC(=O)OCc1ccccc1)C(CCC(=O)O)=C3C | viral replication |  | MDCK | H3N2 |  | > 29.8 µM
O=P(O)(OCc1cccc2ccccc12)Oc1c2c(c(OP(=O)(O)OCc3cccc4ccccc34)c3c1C1CC3c3cc4c(cc31)C1CC4c3ccccc31)C1CC2c2cc3c(cc21)C1CC3c2ccccc21 | viral replication |  | Caco-2 |  |  | 0.6 µM
CC12CCC(CC1=NCCO)C2(C)C (stereo not drawn) | viral replication | inhibitor | MDCK | H1N1 PR8 |  | 1.2 µM

For quick reference, copied from above:
Compound | effect on | mode | cells | strain | time | IC50
CCN(CC)CC#CCOC(=O)[C@]1(C)CCC[C@@]2(C)[C@H]1CC=C1C=C(C(C)C)CC[C@@H]12 | viral replication |  | MDCK | A/Puerto Rico/8/34 (H1N1) |  | 12.6 µM
CCCCCCOP(=O)(O)Oc1c2c(c(OP(=O)(O)OCCCCCC)c3c1C1CC3c3cc4c(cc31)C1CC4c3ccccc31)C1CC2c2cc3c(cc21)C1CC3c2ccccc21 | viral replication |  | Caco-2 |  |  | 113 µM
CC(C)C1=C[C@@]23CC[C@@H]4[C@](C)(CCC[C@@]4(C)C(=O)OCC#CCN4CCCC4)[C@H]2C[C@@H]1[C@H]1C(=O)OC(=O)[C@H]13 | viral replication |  | MDCK | A/Puerto Rico/8/34 (H1N1) |  | 3 µM
